Published values pooled from the literature.
A part holds a random share of what one study measured. Changes are numbered by the printed parent chain.

Study 1 — technique: DHFR PCA, deep sequencing; matrix: yeast; added: (+)-ABA 0.11 µM; reference: wild-type fitted maximum; direction: higher = stronger binding
Target: ABI1, truncated, D143A, DHFR fusion (Arabidopsis thaliana)
Setting: methotrexate growth selection, single substitutions
Starting sequence: PYL1, truncated, DHFR fusion (Arabidopsis thaliana); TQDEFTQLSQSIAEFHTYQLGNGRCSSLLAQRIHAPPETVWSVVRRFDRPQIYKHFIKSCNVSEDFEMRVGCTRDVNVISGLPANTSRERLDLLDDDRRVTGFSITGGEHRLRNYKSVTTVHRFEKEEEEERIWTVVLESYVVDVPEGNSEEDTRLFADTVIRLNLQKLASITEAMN; partner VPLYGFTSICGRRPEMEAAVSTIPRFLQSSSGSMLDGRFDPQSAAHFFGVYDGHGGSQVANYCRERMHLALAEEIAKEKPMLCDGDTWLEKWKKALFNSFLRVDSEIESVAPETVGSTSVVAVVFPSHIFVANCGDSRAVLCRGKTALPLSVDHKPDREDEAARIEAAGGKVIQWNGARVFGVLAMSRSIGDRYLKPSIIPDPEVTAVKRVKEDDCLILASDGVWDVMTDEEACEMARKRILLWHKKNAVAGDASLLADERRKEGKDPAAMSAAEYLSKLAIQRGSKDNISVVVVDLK
`I105C` — result for “relative binding score”: -3.42%.
Under “relative binding score”, `Q167K` is recorded as 34.8%.
`N77T`: “relative binding score” 68%.
`S87V` — result for “relative binding score”: 59.6%.
`E64Q`: “relative binding score” 45.9%.
`N22V`: “relative binding score” 38.2%.
`I133M`: “relative binding score” 31%.
Under “relative binding score”, `L138S` is recorded as 1.48%.
`D95L` — result for “relative binding score”: -4.63%.
`D153E` — result for “relative binding score”: 33.9%.

Study 2 — technique: RNA Bind-n-Seq; form: RNA; matrix: in vitro; tested at: 200 nM; setting: whole 134-nt RNA, ends assumed; added: 150 mM LiCl; reference: input library; direction: higher = stronger binding; all molecules: 7-deaza-guanosine replaces G
Target: Ras GTPase-activating protein-binding protein 1, full length (G3BP1, Homo sapiens, UniProt Q13283)
Chain of UniProt Q13283 (whole entry, looked up): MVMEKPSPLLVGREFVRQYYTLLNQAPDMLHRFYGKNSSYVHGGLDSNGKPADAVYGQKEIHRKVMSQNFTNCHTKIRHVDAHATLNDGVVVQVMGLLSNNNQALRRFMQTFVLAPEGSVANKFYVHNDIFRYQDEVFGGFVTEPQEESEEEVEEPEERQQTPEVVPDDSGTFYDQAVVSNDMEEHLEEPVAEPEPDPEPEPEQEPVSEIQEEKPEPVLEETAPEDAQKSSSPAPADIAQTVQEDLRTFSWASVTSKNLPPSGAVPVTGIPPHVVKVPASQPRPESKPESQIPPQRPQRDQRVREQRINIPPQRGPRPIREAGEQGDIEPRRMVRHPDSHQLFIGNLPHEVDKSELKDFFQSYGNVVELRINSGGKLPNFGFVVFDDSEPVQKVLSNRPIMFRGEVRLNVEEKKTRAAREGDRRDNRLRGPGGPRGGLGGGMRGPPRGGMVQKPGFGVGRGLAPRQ
For `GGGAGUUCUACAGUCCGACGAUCUCCUCAAGUCCUGUGCUACACAUCGUAUGUACCGAAUCGGCGGCGGGCGGGGAAAGUAUUAUGUUACGCCGUUCGGAUCUGCACUUCCAGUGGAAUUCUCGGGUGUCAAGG`, the log2 enrichment was 0.862.
With `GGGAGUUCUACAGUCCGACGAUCCAAGUCCUGUGCUACACAUCGUAUGUACCGAAUCGGGUUUGGUUUGGGUUUGGGGAAAGUAUUAUGUUACGCCGUUCGGAUCUGCACUUCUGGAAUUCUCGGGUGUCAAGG` the log2 enrichment was -0.584.
`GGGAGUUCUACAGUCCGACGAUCUUCUCUGCCGGCUCAGAGGAGAGGAGACGCCGUGAGCGGGACGACCAGAUGUACCGAGAGCGGCUGCGCACCUUGCUGGUCAUCGCGGUUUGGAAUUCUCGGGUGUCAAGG` has a log2 enrichment of -1.08.
For `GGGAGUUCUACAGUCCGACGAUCGUCCUGUGCUACACAUCGUAUGUACCGAAUCGGGAAAAAAAGGGUUUGGGAAAAAGGGAAAGUAUUAUGUUACGCCGUUCGGAUCUGCACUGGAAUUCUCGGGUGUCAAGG`, the log2 enrichment was -2.02.
`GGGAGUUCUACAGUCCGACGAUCUUCCUCAAGUCCUGUGCUACACAUCGUAUGUACCGAAUCGGAGGUGGUGGAAAGUAUUAUGUUACGCCGUUCGGAUCUGCACUUCCAGCAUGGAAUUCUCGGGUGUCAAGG` has a log2 enrichment of -1.46.
For `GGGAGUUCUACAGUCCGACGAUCCCUGUGCUACACAUCGUAUGUACCGAAUCGGGAAAAAAAGGAAAAAAAGGGAAAAAAAGGAAAGUAUUAUGUUACGCCGUUCGGAUCUGCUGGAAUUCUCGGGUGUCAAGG`, the log2 enrichment was -0.0842.

Study 3 — technique: RNA Bind-n-Seq; form: RNA; matrix: in vitro; tested at: not given; setting: RNA with constant flanks, ends assumed; reference: input RNA pool; direction: higher = stronger binding
Target: RING finger protein unkempt homolog, zinc fingers 1-6, GST-SBP tag (UNK, Homo sapiens, UniProt Q9C0B0, residues 30-357)
Chain of UniProt Q9C0B0 (30-357, looked up): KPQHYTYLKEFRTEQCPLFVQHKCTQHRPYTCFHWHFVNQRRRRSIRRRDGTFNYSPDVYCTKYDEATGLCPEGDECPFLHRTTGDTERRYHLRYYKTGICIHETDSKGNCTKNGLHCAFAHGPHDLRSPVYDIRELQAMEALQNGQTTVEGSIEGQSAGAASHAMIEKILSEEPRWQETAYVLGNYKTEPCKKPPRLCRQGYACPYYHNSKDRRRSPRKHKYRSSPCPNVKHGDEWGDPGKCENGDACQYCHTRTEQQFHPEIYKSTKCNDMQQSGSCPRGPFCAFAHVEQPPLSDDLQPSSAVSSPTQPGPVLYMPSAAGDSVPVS
`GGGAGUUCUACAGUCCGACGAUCGUUAGUUUCUUUAUAACCCGUUUAAGUUUGGUUUGCCUCAAUAUACUUUUUAGUUAUUUAAUCCGUAAUUUAAGUAAAUGUGUUUGGUAAUCAUUGUGAAGUUCAGAUUUAUUAUGGAGACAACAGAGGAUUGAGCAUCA` has a bound/input enrichment of 6.43 ratio.
`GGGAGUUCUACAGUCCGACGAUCCCAAACCGAUUUGAUAUGAACGUGUGUUCUCGAUUCGUGAAGUCCUUAAAUGAAGAGGACCGUAAAAAUAUUCAAGAUCAAGUUAACUCUGACCUGGAGGUGGCAUCUGUCUUAUUUAAACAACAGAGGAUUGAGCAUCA` gave a bound/input enrichment of 0.161 ratio.
The bound/input enrichment of `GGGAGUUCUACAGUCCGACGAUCUAUGUACCAAAUGUUCCAGAAGGUUCUGUGAGAAUUAUAGACCAAUCCAGCAAUGUGGAGACCGCAUCUUUUCCAAUCUAUAAGGUGUUAUUCUGUGCACGUGGACAUGACGGAACAACACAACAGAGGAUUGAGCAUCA` is reported as 0.258 ratio.
The bound/input enrichment of `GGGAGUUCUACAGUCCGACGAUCUUGAAUGGUUUGGAAUAUGUGCCACAAAGACUGAAAAAUCUUAAUGAAAUUAAUAAGCUGCCCGCACAUCGACCUUGGCUGAUCACAAAAGAGCACAUUCAGAAACUUGUCAAAACUGGACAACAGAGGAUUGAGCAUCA` is reported as 0.28 ratio.
With `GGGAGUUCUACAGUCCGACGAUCAGUCUGGCCGUACCACUGUGGCUGCUGGCAGCGUCCCUGUUCUGCCUUCUCAGCAAAUGUUAACCGAAUAAAAAUUUAAAAAUAAUUACAAAAACACACAAAAAUGCGUCACACAGAUACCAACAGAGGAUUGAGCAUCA` the bound/input enrichment was 1.48 ratio.

Study 4 — technique: protein-binding microarray; form: double-stranded DNA, one strand shown; matrix: in vitro; tested at: 250 nM; setting: 60-bp whole probe; added: salmon DNA 0.4 mg/ml; reference: random background probes; direction: higher = stronger binding; shared flanks, not repeated: GCCTAGCAC … GTCTTGATTCGCTTGACGCTGCTG
Target: Interferon regulatory factor 5, full length, phosphomimetic (IRF5, Homo sapiens, UniProt Q13568-2, residues 1-514, K96S/S451D/S453D/S456D/S462D)
The log fluorescence of `TTAAGACTGGACTATCGGTTAGTGCTA` is reported as 5.79 z-score.
For `TTAGAACTGGGGTTTCGATTAGTGCTA`, the log fluorescence was 5.81 z-score.
For `GACGGACTCGACTTTCGGGACGTGCTA`, the log fluorescence was 4.94 z-score.
`TATGGTTTTTTTTTAATTGAGTGCTAG` has a log fluorescence of 0.314 z-score.
For `GACGGTTCCGGTTTTGGGACGTGCTAG`, the log fluorescence was 1.17 z-score.
`TCACATCTGCAAGATCCAACTGTGCTA` has a log fluorescence of 0.055 z-score.
For `TTAGATTTCAGTTTCAATTAGTGCTAG`, the log fluorescence was 5.7 z-score.
`TCATTTTTACTTCGGGTACTGTGCTAG` has a log fluorescence of 0.868 z-score.
With `CCTTATCCCTAATCTCAGCCTGTGCTA` the log fluorescence was -0.109 z-score.
For `TTAGTTCTCGGTTTCGGTTAGTGCTAG`, the log fluorescence was 9.22 z-score.
`CTTTATTTAAGCTCCTATCTTGTGCTA` gave a log fluorescence of 0.593 z-score.
`TCATTTATAAATTATCTTACTGTGCTA` has a log fluorescence of 1.42 z-score.
With `GACGATATCCGTCTCGAGACGTGCTAG` the log fluorescence was 0.288 z-score.
